Results gathered from unrelated publications.
Lines come from different studies, so protocols differ. Several values in a cell are separate wells, animals, samples, runs or records. ± gives the spread as reported.
rep main protease: Replicase polyprotein 1ab, main protease (rep, Severe acute respiratory syndrome coronavirus 2, UniProt P0DTD1)

The Kd of `O=C(OC[C@H]1OC(OC(=O)c2cc(O)c(O)c(O)c2)[C@H](OC(=O)c2cc(O)c(O)c(O)c2)[C@@H](OC(=O)c2cc(O)c(O)c(O)c2)[C@@H]1OC(=O)c1cc(O)c(O)c(O)c1)c1cc(O)c(O)c(O)c1` (stereo partly shown) is reported as 6.69 µM (Spike glycoprotein (Severe acute respiratory syndrome coronavirus 2, UniProt P0DTC2); binding, biolayer interferometry).
The EC50 of `Cc1cn([C@H]2C[C@H](N=[N+]=[N-])[C@@H](CO)O2)c(=O)[nH]c1=O` is reported as 0.00709 ± 0.00525 µM (HIV-1; viral replication; human PBMC, subtype E 93TH051, CCR5-tropic clinical isolate).
`Nc1nc(F)nc2c1ncn2[C@H]1C[C@H](O)[C@](CO)(CF)O1` gave an IC50 of > 1 µM (HIV-1 M184V; MTT; MT4).
`C[Se]C[C@H](N)C(=O)O` gave an inhibition of 0.87% (rep main protease; reporter gene (Gaussia luciferase), inhibitor; 20 µM).
With `O=C1Nc2ccc(Cl)cc2[C@@](C#CC2CC2)(C(F)(F)F)O1` the EC50 was 0.0009 ± 0.0002 µM (HIV-1; viral replication, single-round infection; RT mutant K101E/M184I).
The IC50 of `Nc1ccn([C@H]2C[C@H](O)[C@](CO)(CF)O2)c(=O)n1` is reported as > 1 µM (HIV-1 M184V; MT4).
With `CCCC(=O)OCSc1ccccc1C(=O)NCCC(N)=O` the EC50 was 9.98 ± 8.37 µM (HIV-1; viral replication; human PBMC, group O BCF02, CCR5-tropic clinical isolate).
`CNC(=O)[C@@H](NC(=O)[C@H](CC(C)C)[C@H](O)C(=O)NO)C(C)(C)C` has a remaining activity of 96.6% and 90.1% and 92% (Daboia russelii venom proteases (SVMP); protease activity, inhibitor; MH population; 0.01 µM, with: azocasein substrate; relative to: venom alone).
Under antiviral activity, `CNc1nc(N)ncc1-c1cn([C@@H]2O[C@H](CO)[C@@H](O)[C@@]2(C)F)cn1` is recorded as “inactive” (Dengue virus 2; concentration not given).
With `Cc1cc(/C=C/C#N)cc(C)c1-n1cnc2cnc(Nc3ccc4cc(C#N)ccc4c3)nc21` the EC50 was 0.0969 ± 0.0165 µM (HIV-1; viral replication, single-round infection; RT mutant K101P/V179I).
`Nc1ncnc2c([C@@H]3N[C@H](CO)[C@@H](O)[C@H]3O)c[nH]c12` has an inhibition of 33.8% (Marburg virus; viral replication; HeLa, Angola; 0.8 µM).
`Cn1cnc(Cn2c(=O)[nH]/c(=N\c3cc4cn(C)nc4cc3Cl)n(Cc3cc(F)c(F)cc3F)c2=O)n1`: “patients with adverse event” 0% (human, moderate renal impairment; oral, 375 mg, decreased GFR TEAE, severe severity).
`COc1ccccc1CC(=O)Nc1ccccc1Sc1ccc([N+](=O)[O-])cc1` has an IC50 of 5.2 µM (HIV-1; viral replication, item: RT activity; H9 expressing A3G, LAI, X4-tropic wild type; day 7).
`Cn1c(Cn2ccc(C(F)(F)F)c(Oc3cc(Cl)cc(C#N)c3)c2=O)n[nH]c1=O` gave an EC50 of 0.0007 ± 1e-05 µM (HIV-1; viral replication, single-round infection; RT mutant M184V).
The fold enhancement of `N#CC(C#N)=NNc1cccc(Cl)c1` is reported as 2 fold (Escherichia coli; tetracycline MIC, checkerboard; tetracycline-resistant (pBR322); 21 µM, with: tetracycline; relative to: MIC alone over combination).
With `Cc1cc(/C=C/C#N)cc(C)c1Nc1ccnc(Nc2ccc(C#N)cc2)n1` the EC50 was 0.0002 ± 8e-05 µM (HIV-1; viral replication, single-round infection; RT mutant M184I).
`C[C@]1(CO)O[C@@H](n2cnc3c(=O)[nH]c(N)nc32)C[C@@H]1O` has an IC50 of > 1 µM (HIV-1 M184V; MT4).
With `NC(=O)CCNC(=O)c1ccccc1S` the EC50 was 1.44 ± 0.18 µM (HIV-1; viral replication; human PBMC, subtype A 92RW020, CCR5-tropic clinical isolate).
With `CC[C@]1(CO)O[C@@H](n2cnc3c(N)nc(N)nc32)C[C@@H]1O` the IC50 was 0.0102 µM (HIV-1 K65R; MT4).
`CC[C@H](C)[C@H](NC(=O)[C@H](CC(C)C)NC(=O)[C@H](Cc1c[nH]c2ccccc12)NC(=O)[C@H](CCC(N)=O)NC(=O)[C@@H](NC(=O)[C@H](Cc1ccccc1)NC(=O)[C@H](C)NC(=O)[C@H](CCCCNC(=O)COCCOCCNC(=O)COCCOCCNC(=O)CC[C@H](NC(=O)CCCCCCCCCCCCCCCCCCC(=O)O)C(=O)O)NC(=O)[C@H](CCC(N)=O)NC(=O)[C@H](C)NC(=O)[C@@H](NC(=O)[C@H](CCCCN)NC(=O)[C@H](CC(=O)O)NC(=O)[C@H](CC(C)C)NC(=O)C(C)(C)NC(=O)[C@@H](NC(=O)[C@H](CO)NC(=O)[C@H](Cc1ccc(O)cc1)NC(=O)[C@H](CC(=O)O)NC(=O)[C@H](CO)NC(=O)[C@@H](NC(=O)[C@H](Cc1ccccc1)NC(=O)[C@@H](NC(=O)CNC(=O)[C@H](CCC(=O)O)NC(=O)C(C)(C)NC(=O)[C@@H](N)Cc1ccc(O)cc1)[C@@H](C)O)[C@@H](C)O)[C@@H](C)CC)[C@@H](C)CC)C(C)C)C(=O)N[C@@H](C)C(=O)NCC(=O)NCC(=O)N1CCC[C@H]1C(=O)N[C@@H](CO)C(=O)N[C@@H](CO)C(=O)NCC(=O)N[C@@H](C)C(=O)N1CCC[C@H]1C(=O)N1CCC[C@H]1C(=O)N1CCC[C@H]1C(=O)N[C@@H](CO)C(N)=O` — result for “subjects with adverse event”: 0% (item: treatment-emergent medical device site pruritus; healthy subjects; 4.5 mg, multiple ascending dose).
With `Cc1cc(/C=C/C#N)cc(C)c1-n1cnc2cnc(Nc3ccc(/C=C/C#N)cc3)nc21` the EC50 was < 0.005 µM (HIV-1; viral replication, single-round infection; RT mutant K101E/M184V).
The IC50 of `CC(C)OC(=O)OCOP(=O)(CO[C@H](C)Cn1cnc2c(N)ncnc21)OCOC(=O)OC(C)C` is reported as 0.423 ± 0.113 µM (HIV-1 M184V; MT4).
For `O=C(NN1C(=O)[C@@H]2[C@@H]3C=C[C@@H]([C@H]4C[C@@H]34)[C@@H]2C1=O)c1ccc(C(F)(F)F)cc1`, the inhibition was 1.26% (rep main protease; reporter gene (Gaussia luciferase), inhibitor; 20 µM).
For `C#C[C@]1(CO)O[C@@H](n2cnc3c(=O)[nH]c(N)nc32)C[C@@H]1O`, the IC50 was 0.0001 ± 6e-05 µM (HIV-1 K65R; MTT; MT4).
For `Cc1cc(/C=C/C#N)cc(C)c1Nc1ncc(N)c(Nc2c(C)cc(/C=C/C#N)cc2C)n1`, the EC50 was 0.134 ± 0.0097 µM (HIV-1; viral replication, single-round infection; RT mutant V106A).

Repeated from above:
With `CCCC(=O)OCSc1ccccc1C(=O)NCCC(N)=O` the EC50 was 9.98 ± 8.37 µM (HIV-1; viral replication; human PBMC, group O BCF02, CCR5-tropic clinical isolate).
`CNC(=O)[C@@H](NC(=O)[C@H](CC(C)C)[C@H](O)C(=O)NO)C(C)(C)C` has a remaining activity of 96.6% and 90.1% and 92% (Daboia russelii venom proteases (SVMP); protease activity, inhibitor; MH population; 0.01 µM, with: azocasein substrate; relative to: venom alone).
Under antiviral activity, `CNc1nc(N)ncc1-c1cn([C@@H]2O[C@H](CO)[C@@H](O)[C@@]2(C)F)cn1` is recorded as “inactive” (Dengue virus 2; concentration not given).
